Experimental data gathered from unrelated publications.
A part holds a random share of what one study measured. Several values in a cell are separate wells, animals, samples, runs or records. ± gives the spread as reported.
Chain of UniProt P11802 (whole entry, looked up): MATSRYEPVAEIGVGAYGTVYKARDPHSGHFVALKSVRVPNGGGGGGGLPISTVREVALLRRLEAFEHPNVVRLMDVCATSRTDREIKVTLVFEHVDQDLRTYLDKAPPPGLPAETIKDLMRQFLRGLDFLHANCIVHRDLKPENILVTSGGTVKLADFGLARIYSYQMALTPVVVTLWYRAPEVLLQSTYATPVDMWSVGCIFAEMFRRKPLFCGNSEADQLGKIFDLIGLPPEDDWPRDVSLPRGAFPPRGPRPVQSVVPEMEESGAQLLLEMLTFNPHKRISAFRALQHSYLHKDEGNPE
Chain of UniProt Q15349 (whole entry, looked up): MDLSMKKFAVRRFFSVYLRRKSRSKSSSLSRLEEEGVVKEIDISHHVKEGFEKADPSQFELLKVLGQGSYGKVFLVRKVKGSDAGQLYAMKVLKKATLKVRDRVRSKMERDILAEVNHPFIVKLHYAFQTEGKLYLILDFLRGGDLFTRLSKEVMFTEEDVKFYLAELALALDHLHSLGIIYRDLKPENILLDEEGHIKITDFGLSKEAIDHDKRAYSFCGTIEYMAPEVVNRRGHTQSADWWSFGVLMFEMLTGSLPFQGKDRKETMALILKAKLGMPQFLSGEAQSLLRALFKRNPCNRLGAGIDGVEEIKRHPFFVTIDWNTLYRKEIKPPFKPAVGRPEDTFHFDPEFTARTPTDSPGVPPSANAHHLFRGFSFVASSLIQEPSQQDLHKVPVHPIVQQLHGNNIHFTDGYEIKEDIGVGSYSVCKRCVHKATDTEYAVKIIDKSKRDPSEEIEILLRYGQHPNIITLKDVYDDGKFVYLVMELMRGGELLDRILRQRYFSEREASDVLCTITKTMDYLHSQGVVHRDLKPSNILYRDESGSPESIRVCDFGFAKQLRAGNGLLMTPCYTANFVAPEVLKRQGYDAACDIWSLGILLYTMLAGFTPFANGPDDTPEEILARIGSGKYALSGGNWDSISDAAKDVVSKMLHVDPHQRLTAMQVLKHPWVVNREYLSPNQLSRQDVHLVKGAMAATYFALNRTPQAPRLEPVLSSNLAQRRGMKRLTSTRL
Chain of UniProt Q8NFD2 (whole entry, looked up): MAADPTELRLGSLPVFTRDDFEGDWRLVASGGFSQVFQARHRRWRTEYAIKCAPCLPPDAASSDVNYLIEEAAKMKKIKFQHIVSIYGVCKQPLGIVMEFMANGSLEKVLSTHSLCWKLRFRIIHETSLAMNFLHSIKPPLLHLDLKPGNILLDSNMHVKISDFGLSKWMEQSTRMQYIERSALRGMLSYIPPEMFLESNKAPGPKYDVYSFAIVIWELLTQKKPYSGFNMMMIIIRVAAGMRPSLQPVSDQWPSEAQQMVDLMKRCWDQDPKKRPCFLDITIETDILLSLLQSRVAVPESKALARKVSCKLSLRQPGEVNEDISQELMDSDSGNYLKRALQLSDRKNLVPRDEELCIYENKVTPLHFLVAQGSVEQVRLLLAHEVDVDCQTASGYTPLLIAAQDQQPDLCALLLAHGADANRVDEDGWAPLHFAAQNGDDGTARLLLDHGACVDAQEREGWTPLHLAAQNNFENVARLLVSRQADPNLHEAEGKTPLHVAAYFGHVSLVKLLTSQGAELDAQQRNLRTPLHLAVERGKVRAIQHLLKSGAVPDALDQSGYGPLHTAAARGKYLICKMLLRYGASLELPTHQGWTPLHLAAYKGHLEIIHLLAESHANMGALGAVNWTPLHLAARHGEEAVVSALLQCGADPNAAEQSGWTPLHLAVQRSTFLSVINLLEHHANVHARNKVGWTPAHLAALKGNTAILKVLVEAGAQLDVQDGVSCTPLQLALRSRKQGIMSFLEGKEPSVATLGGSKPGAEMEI
Chain of UniProt Q04771 (whole entry, looked up): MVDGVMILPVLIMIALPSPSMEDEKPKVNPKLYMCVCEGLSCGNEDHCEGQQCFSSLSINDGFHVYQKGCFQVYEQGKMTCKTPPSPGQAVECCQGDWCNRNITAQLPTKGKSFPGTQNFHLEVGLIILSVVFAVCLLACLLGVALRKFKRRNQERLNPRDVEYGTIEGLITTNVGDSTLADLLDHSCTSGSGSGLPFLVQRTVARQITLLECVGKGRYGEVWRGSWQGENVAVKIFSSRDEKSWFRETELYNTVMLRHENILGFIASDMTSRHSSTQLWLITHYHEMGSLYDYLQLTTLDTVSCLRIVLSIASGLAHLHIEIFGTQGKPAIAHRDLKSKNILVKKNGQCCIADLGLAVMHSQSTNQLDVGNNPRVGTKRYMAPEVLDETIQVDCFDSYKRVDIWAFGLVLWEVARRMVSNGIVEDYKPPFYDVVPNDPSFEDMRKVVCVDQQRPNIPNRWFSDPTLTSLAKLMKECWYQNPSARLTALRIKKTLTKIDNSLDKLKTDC
Chain of UniProt P42336 (whole entry, unmodified, looked up): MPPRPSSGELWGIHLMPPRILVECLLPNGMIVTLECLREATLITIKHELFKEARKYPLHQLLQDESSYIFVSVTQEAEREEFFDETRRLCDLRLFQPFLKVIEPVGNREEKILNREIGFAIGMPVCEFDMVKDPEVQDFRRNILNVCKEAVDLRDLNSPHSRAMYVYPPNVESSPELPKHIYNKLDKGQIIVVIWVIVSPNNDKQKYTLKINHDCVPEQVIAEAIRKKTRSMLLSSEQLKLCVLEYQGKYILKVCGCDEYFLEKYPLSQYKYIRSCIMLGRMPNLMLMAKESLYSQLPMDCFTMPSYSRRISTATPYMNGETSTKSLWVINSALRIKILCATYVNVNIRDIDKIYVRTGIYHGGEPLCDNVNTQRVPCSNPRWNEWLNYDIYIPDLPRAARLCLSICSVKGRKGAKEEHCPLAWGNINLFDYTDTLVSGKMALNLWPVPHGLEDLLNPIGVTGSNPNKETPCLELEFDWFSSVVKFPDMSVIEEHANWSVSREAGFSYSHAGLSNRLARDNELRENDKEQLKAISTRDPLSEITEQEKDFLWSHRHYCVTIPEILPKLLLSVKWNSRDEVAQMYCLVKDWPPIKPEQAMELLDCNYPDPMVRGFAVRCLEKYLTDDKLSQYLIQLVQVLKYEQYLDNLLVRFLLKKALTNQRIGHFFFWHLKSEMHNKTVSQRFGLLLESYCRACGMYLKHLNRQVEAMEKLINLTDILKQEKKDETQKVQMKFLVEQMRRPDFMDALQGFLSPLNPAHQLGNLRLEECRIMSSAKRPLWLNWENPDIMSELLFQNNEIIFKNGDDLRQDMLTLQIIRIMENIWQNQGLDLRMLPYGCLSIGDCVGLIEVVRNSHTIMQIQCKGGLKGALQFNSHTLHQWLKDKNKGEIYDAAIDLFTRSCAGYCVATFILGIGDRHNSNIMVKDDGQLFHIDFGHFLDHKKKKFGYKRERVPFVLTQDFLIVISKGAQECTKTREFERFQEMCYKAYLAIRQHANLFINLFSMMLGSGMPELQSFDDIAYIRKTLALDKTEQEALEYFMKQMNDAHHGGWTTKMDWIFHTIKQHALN
Chain of UniProt Q9UQM7 (whole entry, looked up): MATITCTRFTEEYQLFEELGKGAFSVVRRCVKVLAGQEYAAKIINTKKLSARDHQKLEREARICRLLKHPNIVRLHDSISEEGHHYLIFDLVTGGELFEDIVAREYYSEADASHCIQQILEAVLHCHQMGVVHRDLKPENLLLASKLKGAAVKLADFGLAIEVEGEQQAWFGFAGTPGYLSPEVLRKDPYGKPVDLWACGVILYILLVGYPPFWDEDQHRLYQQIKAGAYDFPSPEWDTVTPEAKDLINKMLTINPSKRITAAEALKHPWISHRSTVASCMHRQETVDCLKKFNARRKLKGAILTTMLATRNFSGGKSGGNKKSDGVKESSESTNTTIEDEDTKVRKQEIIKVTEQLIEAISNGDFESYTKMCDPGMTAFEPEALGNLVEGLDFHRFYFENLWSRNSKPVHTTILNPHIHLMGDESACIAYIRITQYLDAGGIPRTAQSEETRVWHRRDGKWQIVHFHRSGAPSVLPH

Study 1 — method: immunohistochemistry; baseline: before treatment; direction: direction not given
Compound: COc1ccc(-c2c(Nc3ccccn3)[nH]c3c(C4=CCCCC4)c(-c4ccccc4)nn3c2=O)cc1
| item | host | medium | dose | setting | SDMA H-score change [%] |
| --- | --- | --- | --- | --- | --- |
| – | cancer patients | paired tumour biopsies | 200 mg twice daily | – | -25 |
| symmetric dimethylarginine | human cancer patients | tumour biopsy | 50 mg QD | – | -29.8 ± 17.2 |
| – | cancer patients | paired tumour biopsies | dose not given | all doses | -36.5 ± 14 |

Study 2 — method: competition with immobilised ligand; concentration: 1 µM
Compound: CCCOc1ccc([C@H]2[C@H](C(=O)O)[C@@H](c3ccc4c(c3)OCO4)CN2CC(=O)Nc2c(CC)cccc2CC)cc1
| target | read-out | remaining binding [%] |
| --- | --- | --- |
| ACVRL1 (Homo sapiens, UniProt P37023) | binding | 99 |
| MELK (Homo sapiens, UniProt Q14680) | cell-free assay | 65 |
| Ribosomal protein S6 kinase alpha-2, C-terminal kinase domain (RPS6KA2, Homo sapiens, UniProt Q15349) | cell-free assay | 82 |
| EGFR (Homo sapiens, UniProt P00533, del752-759) | cell-free assay | 100 |
| Tyrosine-protein kinase ABL1, phosphorylated (ABL1, Homo sapiens, UniProt P00519, E255K) | binding | 70 |
| CAMK2A (Homo sapiens, UniProt Q9UQM7) | cell-free assay | 90 |
| IGF1R (Homo sapiens, UniProt P08069) | cell-free assay | 89 |
| NEK1 (Homo sapiens, UniProt Q96PY6) | cell-free assay | 87 |
| FLT4 (Homo sapiens, UniProt P35916) | cell-free assay | 90 |
| ACVR1 (Homo sapiens, UniProt Q04771) | cell-free assay | 100 |
| Cyclin-dependent kinase 4, with cyclin D3 (CDK4, Homo sapiens, UniProt P11802) | cell-free assay | 89 |
| ANKK1 (Homo sapiens, UniProt Q8NFD2) | cell-free assay | 65 |
| CDK4 (Homo sapiens, UniProt P11802) | cell-free assay | 100 |
| PIK3CA (Homo sapiens, UniProt P42336, E542K) | cell-free assay | 75 |
| DYRK1B (Homo sapiens, UniProt Q9Y463) | cell-free assay | 100 |

Study 3 — read-out: kinase activity; action: inhibitor; method: ADP-Glo; time: 1 h
Structure (SMILES): CC(C)(C)c1nc(-c2cccc(NS(=O)(=O)c3c(F)cccc3F)c2F)c(-c2ccnc(N)n2)s1
Target: Receptor-interacting serine/threonine-protein kinase 3 (RIPK3, Homo sapiens, UniProt Q9Y572)
Chain of UniProt Q9Y572 (whole entry, looked up): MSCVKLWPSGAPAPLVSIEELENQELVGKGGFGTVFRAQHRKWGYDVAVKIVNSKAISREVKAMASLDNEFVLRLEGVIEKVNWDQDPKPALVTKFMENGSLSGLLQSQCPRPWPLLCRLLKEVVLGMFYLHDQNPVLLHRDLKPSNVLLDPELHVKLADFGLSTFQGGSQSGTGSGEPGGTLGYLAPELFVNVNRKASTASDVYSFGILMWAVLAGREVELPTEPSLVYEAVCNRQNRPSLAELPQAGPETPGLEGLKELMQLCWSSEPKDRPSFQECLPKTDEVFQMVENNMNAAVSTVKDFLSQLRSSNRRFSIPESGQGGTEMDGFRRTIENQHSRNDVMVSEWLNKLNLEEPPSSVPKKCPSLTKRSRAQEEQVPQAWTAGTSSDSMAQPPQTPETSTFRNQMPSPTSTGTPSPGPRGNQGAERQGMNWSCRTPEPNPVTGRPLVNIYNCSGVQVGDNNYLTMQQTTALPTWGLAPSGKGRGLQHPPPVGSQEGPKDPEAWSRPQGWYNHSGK
| concentration | inhibition [%] |
| --- | --- |
| 125 nM | 92.2 |
| 15.62 nM | 59.7 |
| 500 nM | 101 |
| 3.906 nM | 37.4 |
| 31.25 nM | 69 |

Study 4 — cell line: A-375; concentration: 100 µM; time: 36 h
| SMILES | viability |
| --- | --- |
| CC(C)n1c(/C=C/[C@H](O)C[C@H](O)CC(=O)O)c(-c2ccc(F)cc2)c2ccccc21 (racemic) | 53.6% |
| CO[C@H]1C[C@@H]2CC[C@@H](C)[C@@](O)(O2)C(=O)C(=O)N2CCCC[C@H]2C(=O)O[C@H]([C@H](C)C[C@@H]2CC[C@@H](OCCO)[C@H](OC)C2)CC(=O)[C@H](C)/C=C(\C)[C@@H](O)[C@@H](OC)C(=O)[C@H](C)C[C@H](C)/C=C/C=C/C=C/1C | 5.59% |
| Cn1c(=O)c2[nH]cnc2n(C)c1=O | 82.1% and 117% and 66.5% |
| CCOc1ccc2nc(SCCN3CCOCC3)[nH]c2c1 | 104% |
| CCCCc1ncc(/C=C(\Cc2cccs2)C(=O)O)n1Cc1ccc(C(=O)O)cc1 | 118% |
| COc1cc2c(cc1O)[C@@H](Cc1ccc(O)c(Oc3ccc(C[C@@H]4c5cc(OC)c(OC)cc5CCN4C)cc3)c1)N(C)CC2 | 4.37% |
| Cc1cc2nc3c(=O)[nH]c(=O)nc-3n(C[C@H](O)[C@H](O)[C@H](O)CO)c2cc1C | 102% |
| CCCCN1CCCCC1C(=O)Nc1c(C)cccc1C (centres unmarked) | 92.1% |
| CO[C@H]1/C=C/O[C@@]2(C)Oc3c(C)c(O)c4c(O)c(c(/C=N/N5CCN(C)CC5)c(O)c4c3C2=O)NC(=O)/C(C)=C\C=C\[C@H](C)[C@H](O)[C@@H](C)[C@@H](O)[C@@H](C)[C@H](OC(C)=O)[C@@H]1C | 126% |
